# Measured values from different studies.
# Each line is one published result; not all experiments were run side by side.
# Chain of UniProt Q6ZWH5 (whole entry, looked up): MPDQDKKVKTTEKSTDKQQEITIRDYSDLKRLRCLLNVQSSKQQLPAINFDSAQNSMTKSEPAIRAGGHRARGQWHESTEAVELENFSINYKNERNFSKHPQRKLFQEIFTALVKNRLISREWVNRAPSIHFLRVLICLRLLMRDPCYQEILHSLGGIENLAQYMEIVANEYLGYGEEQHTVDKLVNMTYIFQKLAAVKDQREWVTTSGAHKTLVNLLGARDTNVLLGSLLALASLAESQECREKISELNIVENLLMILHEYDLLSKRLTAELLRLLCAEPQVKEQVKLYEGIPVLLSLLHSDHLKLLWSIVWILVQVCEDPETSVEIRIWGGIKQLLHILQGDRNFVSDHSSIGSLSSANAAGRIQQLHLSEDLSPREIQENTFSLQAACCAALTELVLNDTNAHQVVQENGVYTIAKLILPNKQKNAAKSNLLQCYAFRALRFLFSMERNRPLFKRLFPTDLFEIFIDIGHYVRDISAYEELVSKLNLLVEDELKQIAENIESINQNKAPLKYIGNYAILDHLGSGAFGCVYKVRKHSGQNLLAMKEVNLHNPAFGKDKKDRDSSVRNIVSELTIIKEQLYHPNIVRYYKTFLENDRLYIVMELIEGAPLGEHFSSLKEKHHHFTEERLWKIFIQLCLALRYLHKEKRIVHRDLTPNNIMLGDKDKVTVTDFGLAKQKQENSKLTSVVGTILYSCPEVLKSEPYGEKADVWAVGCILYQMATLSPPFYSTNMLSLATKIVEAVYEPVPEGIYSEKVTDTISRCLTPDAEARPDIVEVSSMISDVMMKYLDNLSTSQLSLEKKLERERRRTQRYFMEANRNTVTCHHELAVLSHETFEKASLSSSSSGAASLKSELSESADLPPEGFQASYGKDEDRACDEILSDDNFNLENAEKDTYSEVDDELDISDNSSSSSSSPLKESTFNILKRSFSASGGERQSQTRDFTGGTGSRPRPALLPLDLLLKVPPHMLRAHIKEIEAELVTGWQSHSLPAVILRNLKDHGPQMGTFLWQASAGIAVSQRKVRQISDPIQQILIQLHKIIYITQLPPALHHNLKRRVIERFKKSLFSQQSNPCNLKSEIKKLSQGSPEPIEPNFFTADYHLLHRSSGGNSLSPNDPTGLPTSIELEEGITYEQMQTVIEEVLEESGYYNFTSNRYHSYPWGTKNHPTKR
# Chain of UniProt Q8NEV4 (whole entry, looked up): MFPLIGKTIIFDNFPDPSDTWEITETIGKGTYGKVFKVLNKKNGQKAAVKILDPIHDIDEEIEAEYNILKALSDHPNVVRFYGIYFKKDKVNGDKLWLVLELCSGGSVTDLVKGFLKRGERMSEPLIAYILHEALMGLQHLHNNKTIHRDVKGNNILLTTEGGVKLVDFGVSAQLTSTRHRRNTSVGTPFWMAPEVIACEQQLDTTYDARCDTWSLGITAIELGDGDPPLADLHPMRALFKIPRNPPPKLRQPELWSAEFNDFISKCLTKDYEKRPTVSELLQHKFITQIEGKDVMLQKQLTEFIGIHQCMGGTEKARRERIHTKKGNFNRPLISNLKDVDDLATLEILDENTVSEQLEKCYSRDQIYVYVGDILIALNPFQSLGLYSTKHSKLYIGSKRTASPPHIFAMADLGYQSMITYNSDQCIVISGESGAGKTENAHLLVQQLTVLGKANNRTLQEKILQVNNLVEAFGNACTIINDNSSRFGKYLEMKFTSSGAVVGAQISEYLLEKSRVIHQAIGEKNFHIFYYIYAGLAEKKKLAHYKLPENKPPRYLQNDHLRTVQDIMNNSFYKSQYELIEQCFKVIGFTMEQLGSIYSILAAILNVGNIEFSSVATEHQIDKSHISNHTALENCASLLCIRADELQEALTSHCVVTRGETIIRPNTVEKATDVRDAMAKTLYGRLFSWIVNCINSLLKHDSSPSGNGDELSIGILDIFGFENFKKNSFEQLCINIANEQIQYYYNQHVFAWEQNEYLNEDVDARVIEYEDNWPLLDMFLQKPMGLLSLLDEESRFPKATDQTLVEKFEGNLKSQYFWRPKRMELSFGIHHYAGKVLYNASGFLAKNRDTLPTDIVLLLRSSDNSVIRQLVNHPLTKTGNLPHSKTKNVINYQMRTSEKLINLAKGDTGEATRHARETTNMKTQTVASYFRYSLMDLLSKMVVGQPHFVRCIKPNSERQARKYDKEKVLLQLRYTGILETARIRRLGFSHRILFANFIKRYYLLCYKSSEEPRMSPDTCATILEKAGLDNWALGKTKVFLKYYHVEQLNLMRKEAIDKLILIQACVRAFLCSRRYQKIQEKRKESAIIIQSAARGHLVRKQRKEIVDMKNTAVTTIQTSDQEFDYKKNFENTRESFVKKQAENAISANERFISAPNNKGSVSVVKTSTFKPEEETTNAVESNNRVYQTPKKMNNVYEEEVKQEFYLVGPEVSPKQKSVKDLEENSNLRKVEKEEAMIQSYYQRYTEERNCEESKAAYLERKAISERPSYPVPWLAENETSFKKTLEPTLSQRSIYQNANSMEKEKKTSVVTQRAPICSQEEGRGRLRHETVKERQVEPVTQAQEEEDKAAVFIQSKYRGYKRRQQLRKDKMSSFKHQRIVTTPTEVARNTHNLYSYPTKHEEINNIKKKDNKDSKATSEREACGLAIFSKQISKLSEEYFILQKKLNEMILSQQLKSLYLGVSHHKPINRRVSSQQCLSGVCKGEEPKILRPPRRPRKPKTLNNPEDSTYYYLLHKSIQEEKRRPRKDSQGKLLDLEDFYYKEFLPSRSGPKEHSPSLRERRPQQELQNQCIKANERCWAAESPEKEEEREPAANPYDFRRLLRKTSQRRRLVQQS
# Chain of UniProt Q9H2X6 (whole entry, looked up): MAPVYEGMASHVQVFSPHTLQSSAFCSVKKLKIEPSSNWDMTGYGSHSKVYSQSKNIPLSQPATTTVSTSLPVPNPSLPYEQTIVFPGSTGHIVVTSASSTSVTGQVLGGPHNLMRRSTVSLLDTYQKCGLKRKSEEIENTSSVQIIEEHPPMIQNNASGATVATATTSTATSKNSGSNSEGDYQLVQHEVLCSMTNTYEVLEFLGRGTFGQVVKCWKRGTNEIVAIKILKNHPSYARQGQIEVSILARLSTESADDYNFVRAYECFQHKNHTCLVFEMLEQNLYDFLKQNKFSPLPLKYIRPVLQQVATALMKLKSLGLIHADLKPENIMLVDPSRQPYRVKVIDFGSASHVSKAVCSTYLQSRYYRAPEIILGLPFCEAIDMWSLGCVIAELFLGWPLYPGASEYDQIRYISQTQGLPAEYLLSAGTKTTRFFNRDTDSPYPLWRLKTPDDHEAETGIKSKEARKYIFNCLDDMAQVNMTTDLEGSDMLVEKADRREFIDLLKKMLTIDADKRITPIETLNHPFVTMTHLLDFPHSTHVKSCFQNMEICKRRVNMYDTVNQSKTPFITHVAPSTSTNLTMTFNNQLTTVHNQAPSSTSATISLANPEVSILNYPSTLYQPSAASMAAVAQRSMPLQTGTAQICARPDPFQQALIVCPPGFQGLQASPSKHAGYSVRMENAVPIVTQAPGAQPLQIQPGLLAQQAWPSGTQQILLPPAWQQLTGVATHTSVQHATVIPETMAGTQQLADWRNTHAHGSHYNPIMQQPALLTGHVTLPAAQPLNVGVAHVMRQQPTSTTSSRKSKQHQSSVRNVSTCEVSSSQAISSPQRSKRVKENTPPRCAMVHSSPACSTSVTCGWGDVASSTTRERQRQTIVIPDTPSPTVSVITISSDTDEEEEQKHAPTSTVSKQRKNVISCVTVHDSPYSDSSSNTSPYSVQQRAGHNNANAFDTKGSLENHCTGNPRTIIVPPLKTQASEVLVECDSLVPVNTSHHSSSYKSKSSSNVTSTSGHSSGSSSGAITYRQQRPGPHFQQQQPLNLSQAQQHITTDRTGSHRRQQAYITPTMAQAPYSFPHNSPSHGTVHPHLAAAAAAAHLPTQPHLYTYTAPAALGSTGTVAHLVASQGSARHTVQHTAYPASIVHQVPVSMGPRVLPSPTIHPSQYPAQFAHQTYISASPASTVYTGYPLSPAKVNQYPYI
# Chain of UniProt Q16659 (whole entry, looked up): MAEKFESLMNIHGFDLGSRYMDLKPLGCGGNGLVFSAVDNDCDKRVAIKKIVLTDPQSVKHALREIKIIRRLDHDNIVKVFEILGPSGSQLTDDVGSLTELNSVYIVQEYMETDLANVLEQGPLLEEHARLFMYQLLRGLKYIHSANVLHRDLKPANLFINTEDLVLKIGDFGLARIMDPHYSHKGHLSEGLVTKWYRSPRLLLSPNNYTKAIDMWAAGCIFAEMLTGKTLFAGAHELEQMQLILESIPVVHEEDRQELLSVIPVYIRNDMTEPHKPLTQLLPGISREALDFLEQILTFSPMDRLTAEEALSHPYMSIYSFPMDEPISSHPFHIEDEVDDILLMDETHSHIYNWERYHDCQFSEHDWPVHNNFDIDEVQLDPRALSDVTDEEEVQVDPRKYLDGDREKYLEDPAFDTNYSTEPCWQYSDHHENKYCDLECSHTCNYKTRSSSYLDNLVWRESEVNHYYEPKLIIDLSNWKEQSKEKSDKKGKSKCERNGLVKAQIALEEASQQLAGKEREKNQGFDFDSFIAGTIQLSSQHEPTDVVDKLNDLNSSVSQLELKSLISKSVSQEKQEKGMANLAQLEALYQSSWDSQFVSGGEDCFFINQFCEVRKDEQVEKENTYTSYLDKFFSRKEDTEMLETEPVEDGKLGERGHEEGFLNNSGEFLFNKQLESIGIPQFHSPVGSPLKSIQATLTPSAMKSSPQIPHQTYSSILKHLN
SMILES,tested on,test,system,conditions,measurement,result
NC1=CC2=NCCc3c[nH]c(c32)C1=O,Babesia duncani,"parasite growth, SYBR Green",,"60 h, blood stage",IC50,342 nM
OC(Cn1cncn1)(Cn1cncn1)c1ccc(F)cc1F,Trichophyton mentagrophytes,"microbial growth, broth dilution",ATCC9533,,MIC,16 µg/mL
CC(C)(C)C(O)(CCc1ccc(Cl)cc1)Cn1cncn1 (stereo not shown),Fusarium graminearum,microbial growth,,200 µg/mL,inhibition,100%
O=C(NNc1cccc(Cl)c1)c1nnc(C23CC4CC(CC(C4)C2)C3)o1,Pyricularia grisea,microbial growth,,50 µg/mL,inhibition,54.8%
Nc1ncc(-c2nc(N3CCOCC3)nc(N3CCOCC3)n2)c(C(F)F)n1,"Myosin-IIIa (MYO3A, Homo sapiens, UniProt Q8NEV4)","binding, competition with immobilised ligand",,10 µM,remaining binding,92%
O=C(NCCc1ncc(C(F)(F)F)cc1Cl)c1ccccc1C(F)(F)F,Pyricularia grisea,microbial growth,,50 µg/mL,inhibition,23.7%
[2H]c1c([2H])c([C@]2([2H])CCCN2C(=O)C(C)(C)Oc2ccc3cn[nH]c3c2)c([2H])c([2H])c1C([2H])([2H])[2H],"HIPK2 (Homo sapiens, UniProt Q9H2X6)","binding, competition with immobilised ligand",,1 µM,remaining binding,87%
COc1c(N2CC3CCCNC3C2)c(F)cc2c(=O)c(C(=O)OCc3cnc([N+](=O)[O-])s3)cn(C3CC3)c12 (stereo not shown),Mycobacteroides abscessus,microbial growth,ATCC19977,,MIC,1 µM
O=C(NNc1cccc(Cl)c1)c1nnc(CC23CC4CC(CC(C4)C2)C3)o1,Pyricularia grisea,microbial growth,,50 µg/mL,inhibition,100%
COC(CNC1=CC2=NCCc3c[nH]c(c32)C1=O)c1c[nH]c2ccccc12 (stereo not shown),Babesia duncani,"parasite growth, SYBR Green",,"60 h, blood stage",IC50,696 nM
COc1ncccc1-c1cnn2ccc(N3CCN(C(=O)OC(C)C)CC3)nc12,"NEK10 (Homo sapiens, UniProt Q6ZWH5)","binding, competition with immobilised ligand",,1 µM,remaining binding,66%
C[N+]1=C2C=C(N)C(=O)c3[nH]cc(c32)CC1,Babesia duncani,"parasite growth, SYBR Green",,"60 h, blood stage",IC50,3400 nM
Cc1nn(C)cc1-c1nc2c(N3CCN(Cc4ccc(Cl)cc4)CC3)c(Cl)cnc2[nH]1,"MAPK6 (Homo sapiens, UniProt Q16659)","binding, competition with immobilised ligand",,1 µM,remaining binding,87%

# A few entries again:
SMILES,tested on,test,system,conditions,measurement,result
OC(Cn1cncn1)(Cn1cncn1)c1ccc(F)cc1F,Trichophyton mentagrophytes,"microbial growth, broth dilution",ATCC9533,,MIC,16 µg/mL
